# Assay results of several laboratories.
# Lines come from different studies, so protocols differ. Several values in a cell are separate wells, animals, samples, runs or records. ± marks the error that the study gave.
# PDE5A: cGMP-specific 3',5'-cyclic phosphodiesterase (PDE5A, Homo sapiens, UniProt O76074)
Structure (SMILES),target,test,system,conditions,IC50
O=c1c(OCc2ccccc2)c(-c2cccc([N+](=O)[O-])c2)oc2ccccc12,β-glucosidase,"enzyme activity, inhibitor",,,0.3 ± 0.11 µM
CCc1c(-c2cccc3[nH]ccc23)[nH]c(C(=O)O)c1-c1ccccc1Cl,"E3 ubiquitin-protein ligase RING2, with BMI1 (RNF2, Homo sapiens, UniProt Q99496)",,,,~12 µM
COc1cc(/C=C/c2cc(/C=C/c3ccc(O)c(OC)c3)on2)ccc1O,"Sterol carrier protein 2 (Helicoverpa armigera, UniProt K7NSY9)","displacement of 1,8-ANS, fluorescence",,"pH 7.0, 25 °C, together with: 1,8-ANS 15 µM",30.2 µM
OC(c1ccccc1)(c1cccs1)c1cccs1,"Gap junction alpha-8 protein (Gja8, Mus musculus, UniProt P28236)","gap junction current, inhibitor, dual whole-cell voltage clamp",transfected mouse N2a cell pairs,,10 µM
Nc1nc(Cl)nc2c1ncn2Cc1cc(OCC(F)F)cc(OC(F)F)c1,PDE5A,"enzyme activity, inhibitor",,,4.83 µM
COc1cc2nccc(Oc3ccc(NC(=S)N4CC(F)(F)C4)c(Cl)c3)c2cc1C(N)=O,"Fibroblast growth factor receptor 1 (FGFR1, Homo sapiens, UniProt P11362)",,,,0.136 µM
CC(C)c1cc2ccc3ccccc3c2oc1=O,"Tyrosine-protein kinase SYK (SYK, Homo sapiens, UniProt P43405)","enzyme activity, inhibitor, ADP detection",,,> 100 µM
O=C(NCCCN1CCC(Cc2ccccc2)CC1)c1ccc(-c2ccccc2)cc1,"Sodium-dependent serotonin transporter (SLC6A4, Homo sapiens, UniProt P31645)",transporter uptake,,,0.04 to 0.07 µM
N[C@@H](CC#CCN1CCCCCC1)C(=O)O,collagenase,"gelatin hydrolysis, inhibitor",,,1220 µM
C[C@@H](NC(=O)Cc1ccc(Cl)c(SC2C(=O)CC(c3c(Cl)cccc3Cl)CC2=O)c1)c1cccc2ccccc12 (some centres unmarked),"L-lactate dehydrogenase A chain (LDHA, Homo sapiens, UniProt P00338)","enzyme activity, inhibitor",,,0.018 µM
COC(=O)[C@H]1C[C@H](OCCCl)[C@@H](O[C@H]2O[C@H](CO)[C@@H](O)[C@H](O)[C@@H]2n2cc(C(N)c3ccccc3)nn2)C[C@@H]1C(=O)OC (mixture of isomers),"CD209 antigen (CD209, Homo sapiens, UniProt Q9NNX6)","cell-free assay, SPR",,,407 µM
NNC(=S)Nc1cccc([N+](=O)[O-])c1,"Urea transporter 1 (Slc14a1, Rattus norvegicus, UniProt P97689)","urea transport, inhibitor",rat erythrocytes,15 min,3400 ± 800 µM
O=C1NCCc2c(Cc3ccc(Cl)cc3)[nH]c3c(F)ccc1c23,PDE5A,"enzyme activity, inhibitor",,,0.15 µM
CC(C)(C)c1ccc(O)c(C(=O)Nc2ccc(CN)cc2)c1,"Transmembrane protease serine 2 (TMPRSS2, Homo sapiens, UniProt O15393)","enzyme activity, inhibitor, fluorescence",,with preincubation,13 µM and 13.1 µM
CCCN(CC(=O)N(CC(N)=O)Cc1cn(CCCNC(=O)CCCOc2cccc(-c3nc4ccc(-c5nc6ccc(N7CCN(C)CC7)cc6[nH]5)cc4[nH]3)c2)nn1)C(=O)CNCc1cn(CCCNC(=O)CCCOc2cccc(-c3nc4ccc(-c5nc6ccc(N7CCN(C)CC7)cc6[nH]5)cc4[nH]3)c2)nn1,MBNL1–r(CUG)109 complex,MBNL1 displacement,,together with: bulk yeast tRNA competitor,25 ± 6 µM
C[C@@H](O)[C@H](NC(=O)CC(=O)NC[C@H]1O[C@@H](n2cnc3c(N)ncnc32)[C@H](O)[C@@H]1O)C(=O)O,"tsaD/tsaC, with TsaB and TsaE (Escherichia coli, UniProt P05852+P45748)","inhibitor, HPLC",,"pH 7.5, 23 °C, preincubation 1 min, together with: ATP 1 mM and L-threonine",> 1000 µM
CC(C)C(=O)SCCCCCC(NC(=O)OC(C)(C)C)C(=O)NC12CC3CC(CC(C3)C1)C2 (centres unmarked),HDAC (Lucilia cuprina egg nuclear extract),"enzyme activity, inhibitor, fluorometric",,,> 100 µM

# Repeated from above:
Structure (SMILES),target,test,system,conditions,IC50
COc1cc2nccc(Oc3ccc(NC(=S)N4CC(F)(F)C4)c(Cl)c3)c2cc1C(N)=O,"Fibroblast growth factor receptor 1 (FGFR1, Homo sapiens, UniProt P11362)",,,,0.136 µM
NNC(=S)Nc1cccc([N+](=O)[O-])c1,"Urea transporter 1 (Slc14a1, Rattus norvegicus, UniProt P97689)","urea transport, inhibitor",rat erythrocytes,15 min,3400 ± 800 µM
